Experimental data of several laboratories.
Numbered parts are unrelated; each lists some results of a single study.
UniProt O43318, sequence (whole entry, looked up): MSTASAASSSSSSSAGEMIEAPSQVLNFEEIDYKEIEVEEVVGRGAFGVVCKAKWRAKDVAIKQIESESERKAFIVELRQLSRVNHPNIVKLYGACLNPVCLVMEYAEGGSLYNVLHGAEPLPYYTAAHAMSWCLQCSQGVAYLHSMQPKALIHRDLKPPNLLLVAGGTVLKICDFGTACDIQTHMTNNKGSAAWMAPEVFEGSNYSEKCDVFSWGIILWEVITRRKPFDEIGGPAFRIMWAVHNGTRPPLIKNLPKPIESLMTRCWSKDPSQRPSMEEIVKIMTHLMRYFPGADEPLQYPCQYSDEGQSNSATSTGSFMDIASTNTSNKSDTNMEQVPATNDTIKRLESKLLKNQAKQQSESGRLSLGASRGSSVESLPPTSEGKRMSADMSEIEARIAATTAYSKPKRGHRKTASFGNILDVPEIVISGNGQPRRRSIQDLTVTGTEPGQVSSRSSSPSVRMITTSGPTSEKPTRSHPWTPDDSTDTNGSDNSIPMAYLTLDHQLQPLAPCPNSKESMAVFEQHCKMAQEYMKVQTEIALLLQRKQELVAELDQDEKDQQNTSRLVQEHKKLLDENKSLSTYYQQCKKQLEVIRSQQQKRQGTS
UniProt Q9UIK4, sequence (whole entry, looked up): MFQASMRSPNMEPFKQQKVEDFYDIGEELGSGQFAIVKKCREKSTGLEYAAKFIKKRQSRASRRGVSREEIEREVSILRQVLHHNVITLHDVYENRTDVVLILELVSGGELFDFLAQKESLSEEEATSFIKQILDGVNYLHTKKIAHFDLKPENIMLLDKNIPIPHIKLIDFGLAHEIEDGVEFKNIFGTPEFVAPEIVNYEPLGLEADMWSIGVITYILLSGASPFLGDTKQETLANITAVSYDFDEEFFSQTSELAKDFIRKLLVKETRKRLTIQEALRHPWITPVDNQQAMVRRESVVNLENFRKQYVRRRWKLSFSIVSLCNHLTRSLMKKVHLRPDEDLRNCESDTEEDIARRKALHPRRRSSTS
UniProt Q9P286, sequence (whole entry, looked up): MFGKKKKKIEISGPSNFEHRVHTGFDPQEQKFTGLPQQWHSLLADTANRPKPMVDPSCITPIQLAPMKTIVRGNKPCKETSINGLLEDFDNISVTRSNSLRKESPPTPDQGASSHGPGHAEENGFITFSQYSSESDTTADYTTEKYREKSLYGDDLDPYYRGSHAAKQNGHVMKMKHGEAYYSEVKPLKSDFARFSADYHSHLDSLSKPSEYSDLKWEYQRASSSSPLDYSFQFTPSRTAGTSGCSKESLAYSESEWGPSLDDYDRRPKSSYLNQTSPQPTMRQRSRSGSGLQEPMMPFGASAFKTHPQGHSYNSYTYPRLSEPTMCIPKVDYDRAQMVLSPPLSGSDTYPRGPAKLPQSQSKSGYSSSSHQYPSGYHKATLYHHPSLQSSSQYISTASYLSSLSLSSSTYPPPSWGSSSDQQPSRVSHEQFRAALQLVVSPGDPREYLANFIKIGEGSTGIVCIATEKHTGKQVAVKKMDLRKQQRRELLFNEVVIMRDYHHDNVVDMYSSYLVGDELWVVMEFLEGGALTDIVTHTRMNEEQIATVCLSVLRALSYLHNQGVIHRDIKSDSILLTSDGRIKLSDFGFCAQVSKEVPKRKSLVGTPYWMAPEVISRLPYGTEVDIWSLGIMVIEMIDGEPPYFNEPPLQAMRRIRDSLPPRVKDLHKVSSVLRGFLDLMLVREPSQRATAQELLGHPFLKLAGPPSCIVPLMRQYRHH
UniProt Q16659, sequence (whole entry, looked up): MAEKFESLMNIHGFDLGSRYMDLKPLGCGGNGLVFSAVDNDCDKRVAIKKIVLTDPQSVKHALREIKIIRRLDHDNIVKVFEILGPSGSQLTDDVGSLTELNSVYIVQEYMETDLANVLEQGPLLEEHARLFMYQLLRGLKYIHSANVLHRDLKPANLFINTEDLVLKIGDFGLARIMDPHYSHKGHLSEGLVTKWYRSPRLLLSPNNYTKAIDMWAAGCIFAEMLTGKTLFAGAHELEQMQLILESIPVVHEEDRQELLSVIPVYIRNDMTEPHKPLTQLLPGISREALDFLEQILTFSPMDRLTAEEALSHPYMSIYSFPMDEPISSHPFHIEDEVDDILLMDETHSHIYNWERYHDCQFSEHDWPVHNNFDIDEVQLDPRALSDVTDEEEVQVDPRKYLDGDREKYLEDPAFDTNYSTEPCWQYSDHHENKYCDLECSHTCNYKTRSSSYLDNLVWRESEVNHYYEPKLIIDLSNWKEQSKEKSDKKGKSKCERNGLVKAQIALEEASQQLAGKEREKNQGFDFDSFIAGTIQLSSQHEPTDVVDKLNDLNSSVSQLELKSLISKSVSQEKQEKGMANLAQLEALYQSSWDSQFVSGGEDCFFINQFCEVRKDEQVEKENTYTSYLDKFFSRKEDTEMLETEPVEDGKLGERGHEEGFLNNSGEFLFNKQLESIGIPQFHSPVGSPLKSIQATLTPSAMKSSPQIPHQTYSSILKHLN
UniProt Q14289, sequence (whole entry, looked up): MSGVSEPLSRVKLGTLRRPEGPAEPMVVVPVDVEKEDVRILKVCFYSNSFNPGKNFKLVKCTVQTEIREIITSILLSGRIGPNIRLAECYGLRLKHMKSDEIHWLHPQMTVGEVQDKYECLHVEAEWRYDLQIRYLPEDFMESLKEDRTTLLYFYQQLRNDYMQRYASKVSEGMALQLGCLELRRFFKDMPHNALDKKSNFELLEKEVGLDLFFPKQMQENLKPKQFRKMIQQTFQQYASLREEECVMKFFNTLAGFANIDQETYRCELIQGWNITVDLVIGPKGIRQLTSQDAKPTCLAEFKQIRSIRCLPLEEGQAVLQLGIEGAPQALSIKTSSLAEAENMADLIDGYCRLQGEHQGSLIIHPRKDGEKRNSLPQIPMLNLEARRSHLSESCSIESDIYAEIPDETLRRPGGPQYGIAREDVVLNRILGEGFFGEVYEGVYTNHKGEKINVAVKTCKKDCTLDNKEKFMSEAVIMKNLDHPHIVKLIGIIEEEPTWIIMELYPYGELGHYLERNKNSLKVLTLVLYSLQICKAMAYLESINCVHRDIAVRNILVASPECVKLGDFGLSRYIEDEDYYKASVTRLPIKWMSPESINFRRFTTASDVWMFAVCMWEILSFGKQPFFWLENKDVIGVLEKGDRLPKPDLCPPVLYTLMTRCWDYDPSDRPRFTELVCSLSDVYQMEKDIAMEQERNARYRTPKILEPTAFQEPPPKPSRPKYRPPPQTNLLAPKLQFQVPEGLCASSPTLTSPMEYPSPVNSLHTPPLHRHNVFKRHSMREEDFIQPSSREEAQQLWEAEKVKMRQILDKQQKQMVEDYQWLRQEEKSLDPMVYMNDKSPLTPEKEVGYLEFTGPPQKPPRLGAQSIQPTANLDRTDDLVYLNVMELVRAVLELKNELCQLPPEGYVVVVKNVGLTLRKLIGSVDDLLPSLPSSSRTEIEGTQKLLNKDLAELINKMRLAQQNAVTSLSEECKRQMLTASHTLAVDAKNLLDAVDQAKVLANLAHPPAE

Block 1 — read-out: cell-free assay; technique: competition with immobilised ligand; tested at: 1 µM; quantity: remaining binding
Compound: CNC(=O)Nc1ccc2c(c1)CC[C@@]21OC(=O)N(CC(=O)N(Cc2ccc(F)cc2)[C@@H](C)C(F)(F)F)C1=O
Serine/threonine-protein kinase PAK 5 (PAK5, Homo sapiens, UniProt Q9P286): 100%
Mitogen-activated protein kinase 6 (MAPK6, Homo sapiens, UniProt Q16659): 100%
Death-associated protein kinase 2 (DAPK2, Homo sapiens, UniProt Q9UIK4): 92%
Mitogen-activated protein kinase kinase kinase 7 (MAP3K7, Homo sapiens, UniProt O43318): 77%
Protein-tyrosine kinase 2-beta (PTK2B, Homo sapiens, UniProt Q14289): 73%

Block 2 — read-out: enzyme activity; action: inhibitor; tested at: 0.5 µM; reference: control; quantity: remaining activity
Target: Macrophage colony-stimulating factor 1 receptor (CSF1R, Homo sapiens, UniProt P07333)
UniProt P07333, sequence (whole entry, looked up): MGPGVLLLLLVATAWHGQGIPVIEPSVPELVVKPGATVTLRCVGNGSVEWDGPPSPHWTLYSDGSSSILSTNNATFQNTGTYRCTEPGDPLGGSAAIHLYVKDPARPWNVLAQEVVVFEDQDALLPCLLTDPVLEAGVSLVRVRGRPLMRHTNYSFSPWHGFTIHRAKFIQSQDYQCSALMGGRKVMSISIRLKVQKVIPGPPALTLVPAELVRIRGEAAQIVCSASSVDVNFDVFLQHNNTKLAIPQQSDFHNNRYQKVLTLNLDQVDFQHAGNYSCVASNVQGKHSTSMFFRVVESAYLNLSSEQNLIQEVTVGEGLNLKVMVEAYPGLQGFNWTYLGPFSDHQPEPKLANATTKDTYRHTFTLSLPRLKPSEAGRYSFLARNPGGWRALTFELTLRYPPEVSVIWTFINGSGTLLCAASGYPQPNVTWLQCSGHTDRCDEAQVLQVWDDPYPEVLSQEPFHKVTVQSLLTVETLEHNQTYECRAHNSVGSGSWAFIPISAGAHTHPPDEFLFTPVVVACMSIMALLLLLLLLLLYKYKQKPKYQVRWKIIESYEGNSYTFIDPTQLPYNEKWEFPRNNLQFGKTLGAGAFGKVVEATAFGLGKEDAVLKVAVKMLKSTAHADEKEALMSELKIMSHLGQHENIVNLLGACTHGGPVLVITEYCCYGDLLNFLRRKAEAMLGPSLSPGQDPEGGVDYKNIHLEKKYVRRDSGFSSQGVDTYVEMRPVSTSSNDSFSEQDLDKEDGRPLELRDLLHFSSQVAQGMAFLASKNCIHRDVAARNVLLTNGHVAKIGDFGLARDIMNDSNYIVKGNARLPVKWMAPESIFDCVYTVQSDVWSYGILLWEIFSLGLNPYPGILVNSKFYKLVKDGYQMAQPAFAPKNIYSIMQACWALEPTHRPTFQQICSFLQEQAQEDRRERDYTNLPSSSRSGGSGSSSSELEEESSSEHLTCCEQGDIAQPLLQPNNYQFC
COc1ccc(C(=O)Nc2sc3c(c2C(N)=O)CCCC3)cc1OC: 90.2%
Cc1nc(-c2ccccc2)c(-c2ccncc2)o1: 104%
Nc1[nH]nc2nc3ccccc3nc12: 95.3%
OCC(O)CCON=C1C(c2c(O)[nH]c3ccccc23)=Nc2ccccc21 (stereo not shown): 21.1%
CCOC(=O)c1c(C)[nH]c(/C=C2\C(=O)Nc3ccccc32)c1C: 52.5%
O=C(CCCc1ccc(-c2ccccc2F)cc1)Nc1ccc(O)cc1: 104%
Nc1ccc2ncnc(NCCc3ccc(Oc4ccccc4)cc3)c2c1: 106%
C#Cc1cccc(Nc2ncnc3cc(OCCOC)c(OCCOC)cc23)c1: 106%
Nc1ncnc2n[nH]c(Nc3ccc(F)cc3)c12: 101%
CN(C)c1ccc(C=C2C(=O)Nc3ccccc32)cc1: 77.5%
Cc1cccc(-c2[nH]c(C(C)(C)C)nc2-c2ccc3c(c2)OCO3)n1: 102%

Block 3 — technique: universal PBM; molecule type: double-stranded DNA, one strand shown; medium: in vitro; tested at: not given; direction: higher = stronger binding; quantity: E-score
Target: Sal-like protein 4, full length isoform B (SALL4, Homo sapiens, UniProt Q9UJQ4-2, residues 1-616)
Setting: 8-mer, flanks averaged, mean of replicates
Target sequence (chain): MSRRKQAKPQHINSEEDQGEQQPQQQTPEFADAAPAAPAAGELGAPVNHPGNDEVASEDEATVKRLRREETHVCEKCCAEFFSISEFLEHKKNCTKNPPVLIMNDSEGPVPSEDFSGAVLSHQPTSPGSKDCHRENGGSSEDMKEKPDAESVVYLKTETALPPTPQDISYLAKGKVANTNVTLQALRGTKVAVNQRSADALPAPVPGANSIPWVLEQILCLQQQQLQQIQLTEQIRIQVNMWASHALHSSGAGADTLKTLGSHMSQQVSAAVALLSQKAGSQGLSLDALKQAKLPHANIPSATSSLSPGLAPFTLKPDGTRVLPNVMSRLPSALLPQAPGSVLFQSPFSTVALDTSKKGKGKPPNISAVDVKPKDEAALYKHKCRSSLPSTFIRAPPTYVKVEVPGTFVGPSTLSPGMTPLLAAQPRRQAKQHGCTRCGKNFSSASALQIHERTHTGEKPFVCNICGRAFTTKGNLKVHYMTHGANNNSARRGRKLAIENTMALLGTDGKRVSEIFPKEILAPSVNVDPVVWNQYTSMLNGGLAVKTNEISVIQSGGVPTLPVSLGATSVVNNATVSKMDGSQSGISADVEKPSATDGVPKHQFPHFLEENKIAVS
CGATCCCC: -0.282
CTGAAACA: 0.152
GCTGAGGA: -0.15
ACCGACTA: -0.113
CGAAAGAC: -0.0416
AGCGCTAA: -0.0414
GGCAAAAA: 0.144
CGCCAGTA: -0.256

Single results of other studies — technique: cross-linking MS
BRMS1L (Homo sapiens, UniProt Q5PSV4) — cross-linked residues (SIN3A (Homo sapiens, UniProt Q96ST3); cell fractions; with: DSSO): K118 to K937
BOP1 (Homo sapiens, UniProt Q14137) — cross-linked residues (RPL7L1 (Homo sapiens, UniProt Q6DKI1); cell fractions; with: DSSO): K391 to K17
YWHAQ (Homo sapiens, UniProt P27348) — cross-linked residues (YWHAB (Homo sapiens, UniProt P31946); cell fractions; with: DSSO): K85 to K11
GAPDH (Homo sapiens, UniProt P04406) — interaction screen (HNRNPC (Homo sapiens, UniProt P07910); hits only): cross-linked

Excerpt of the above (block 3):
CGATCCCC: -0.282
CTGAAACA: 0.152
